Experimental data gathered from unrelated publications.
Each numbered part is a random draw from the data of one study; scales do not carry over between parts.
Sequence of UniProt O75582 (whole entry, looked up): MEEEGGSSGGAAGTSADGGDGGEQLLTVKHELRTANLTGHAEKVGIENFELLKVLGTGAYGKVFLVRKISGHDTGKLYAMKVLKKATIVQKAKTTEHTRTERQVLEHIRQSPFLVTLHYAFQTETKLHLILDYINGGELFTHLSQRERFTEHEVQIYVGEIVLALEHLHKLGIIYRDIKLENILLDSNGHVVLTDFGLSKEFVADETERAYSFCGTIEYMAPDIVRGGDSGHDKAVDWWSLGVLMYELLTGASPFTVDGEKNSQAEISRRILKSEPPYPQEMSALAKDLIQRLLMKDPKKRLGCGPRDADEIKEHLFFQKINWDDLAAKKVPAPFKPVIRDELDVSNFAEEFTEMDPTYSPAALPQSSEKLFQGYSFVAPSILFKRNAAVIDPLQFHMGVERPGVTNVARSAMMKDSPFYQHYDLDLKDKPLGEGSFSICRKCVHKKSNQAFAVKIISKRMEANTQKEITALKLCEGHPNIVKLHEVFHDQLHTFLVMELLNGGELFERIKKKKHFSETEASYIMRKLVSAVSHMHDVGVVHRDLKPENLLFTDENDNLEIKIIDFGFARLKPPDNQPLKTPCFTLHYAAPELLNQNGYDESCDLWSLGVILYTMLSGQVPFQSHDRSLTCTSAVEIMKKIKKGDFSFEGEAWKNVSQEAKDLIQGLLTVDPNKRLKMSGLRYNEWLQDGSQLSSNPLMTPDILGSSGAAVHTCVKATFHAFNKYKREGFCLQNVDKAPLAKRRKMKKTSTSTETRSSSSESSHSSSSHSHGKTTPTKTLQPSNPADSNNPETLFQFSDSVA
Sequence of UniProt Q16620 (whole entry, looked up): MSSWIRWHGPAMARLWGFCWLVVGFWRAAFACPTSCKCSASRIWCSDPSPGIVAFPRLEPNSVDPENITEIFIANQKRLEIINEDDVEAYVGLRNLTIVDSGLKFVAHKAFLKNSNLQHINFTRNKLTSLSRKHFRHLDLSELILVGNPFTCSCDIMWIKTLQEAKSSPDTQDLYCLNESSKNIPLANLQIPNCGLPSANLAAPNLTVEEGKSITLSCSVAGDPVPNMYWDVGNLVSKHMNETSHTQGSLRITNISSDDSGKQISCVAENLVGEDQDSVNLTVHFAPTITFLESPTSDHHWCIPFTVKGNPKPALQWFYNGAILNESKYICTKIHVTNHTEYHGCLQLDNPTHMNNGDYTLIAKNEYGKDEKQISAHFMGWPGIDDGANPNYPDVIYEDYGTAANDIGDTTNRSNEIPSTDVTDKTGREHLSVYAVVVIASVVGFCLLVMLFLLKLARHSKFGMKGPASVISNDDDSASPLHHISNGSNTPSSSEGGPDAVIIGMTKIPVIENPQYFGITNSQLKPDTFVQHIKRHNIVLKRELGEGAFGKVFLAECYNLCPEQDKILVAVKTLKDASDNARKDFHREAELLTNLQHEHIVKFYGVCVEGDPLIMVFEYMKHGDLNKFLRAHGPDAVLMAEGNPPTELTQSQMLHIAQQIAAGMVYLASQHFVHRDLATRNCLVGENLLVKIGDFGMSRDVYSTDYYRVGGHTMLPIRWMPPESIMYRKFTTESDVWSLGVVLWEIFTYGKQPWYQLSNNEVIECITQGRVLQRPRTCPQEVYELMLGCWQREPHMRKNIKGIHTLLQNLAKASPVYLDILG
Sequence of UniProt Q6P2M8 (whole entry, looked up): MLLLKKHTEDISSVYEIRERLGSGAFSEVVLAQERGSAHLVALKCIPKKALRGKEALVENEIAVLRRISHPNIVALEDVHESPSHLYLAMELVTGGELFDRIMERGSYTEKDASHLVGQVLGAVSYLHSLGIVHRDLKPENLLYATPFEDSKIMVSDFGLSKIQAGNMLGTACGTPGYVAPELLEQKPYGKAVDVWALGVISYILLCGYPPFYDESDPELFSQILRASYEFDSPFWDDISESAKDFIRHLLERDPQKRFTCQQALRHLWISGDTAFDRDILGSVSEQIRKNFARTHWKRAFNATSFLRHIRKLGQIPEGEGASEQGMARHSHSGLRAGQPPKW
Sequence of UniProt Q9HBH9 (whole entry, looked up): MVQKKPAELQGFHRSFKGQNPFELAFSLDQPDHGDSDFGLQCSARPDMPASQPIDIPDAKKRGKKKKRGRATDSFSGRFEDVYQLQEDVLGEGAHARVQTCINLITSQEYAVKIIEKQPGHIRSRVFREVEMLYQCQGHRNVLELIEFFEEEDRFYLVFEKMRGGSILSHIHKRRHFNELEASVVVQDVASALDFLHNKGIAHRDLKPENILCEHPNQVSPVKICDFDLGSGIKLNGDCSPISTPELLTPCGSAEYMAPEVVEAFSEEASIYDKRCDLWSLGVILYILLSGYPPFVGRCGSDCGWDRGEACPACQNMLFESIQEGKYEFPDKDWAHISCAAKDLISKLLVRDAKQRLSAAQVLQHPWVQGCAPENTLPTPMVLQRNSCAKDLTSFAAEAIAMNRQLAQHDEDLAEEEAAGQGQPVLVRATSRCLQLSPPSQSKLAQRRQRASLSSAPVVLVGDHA
Sequence of UniProt P29317 (whole entry, looked up): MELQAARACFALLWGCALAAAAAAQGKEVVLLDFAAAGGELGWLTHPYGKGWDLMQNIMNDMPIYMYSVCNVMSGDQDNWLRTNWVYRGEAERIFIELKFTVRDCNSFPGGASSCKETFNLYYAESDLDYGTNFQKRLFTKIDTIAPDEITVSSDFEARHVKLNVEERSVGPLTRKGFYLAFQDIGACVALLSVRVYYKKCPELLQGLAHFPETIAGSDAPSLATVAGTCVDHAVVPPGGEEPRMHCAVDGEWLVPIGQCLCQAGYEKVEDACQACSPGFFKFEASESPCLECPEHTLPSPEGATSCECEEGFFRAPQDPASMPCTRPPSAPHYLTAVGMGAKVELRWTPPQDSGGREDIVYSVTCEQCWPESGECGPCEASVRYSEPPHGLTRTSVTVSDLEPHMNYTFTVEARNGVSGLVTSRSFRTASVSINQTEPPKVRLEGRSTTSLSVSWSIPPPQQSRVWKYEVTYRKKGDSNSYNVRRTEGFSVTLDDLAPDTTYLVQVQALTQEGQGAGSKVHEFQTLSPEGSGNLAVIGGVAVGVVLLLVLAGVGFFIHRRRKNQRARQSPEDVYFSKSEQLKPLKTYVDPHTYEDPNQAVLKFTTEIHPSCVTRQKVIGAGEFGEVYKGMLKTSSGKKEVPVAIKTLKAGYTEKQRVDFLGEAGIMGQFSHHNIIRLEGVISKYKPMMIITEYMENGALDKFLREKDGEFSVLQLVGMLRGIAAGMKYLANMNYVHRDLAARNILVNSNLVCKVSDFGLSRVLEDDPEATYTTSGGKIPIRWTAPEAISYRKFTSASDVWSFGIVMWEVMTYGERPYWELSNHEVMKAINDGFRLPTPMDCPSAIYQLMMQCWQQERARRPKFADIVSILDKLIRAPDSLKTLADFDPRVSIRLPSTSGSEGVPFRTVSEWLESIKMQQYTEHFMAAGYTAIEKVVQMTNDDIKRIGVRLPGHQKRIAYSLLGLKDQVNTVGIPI
Sequence of UniProt Q92630 (whole entry, looked up): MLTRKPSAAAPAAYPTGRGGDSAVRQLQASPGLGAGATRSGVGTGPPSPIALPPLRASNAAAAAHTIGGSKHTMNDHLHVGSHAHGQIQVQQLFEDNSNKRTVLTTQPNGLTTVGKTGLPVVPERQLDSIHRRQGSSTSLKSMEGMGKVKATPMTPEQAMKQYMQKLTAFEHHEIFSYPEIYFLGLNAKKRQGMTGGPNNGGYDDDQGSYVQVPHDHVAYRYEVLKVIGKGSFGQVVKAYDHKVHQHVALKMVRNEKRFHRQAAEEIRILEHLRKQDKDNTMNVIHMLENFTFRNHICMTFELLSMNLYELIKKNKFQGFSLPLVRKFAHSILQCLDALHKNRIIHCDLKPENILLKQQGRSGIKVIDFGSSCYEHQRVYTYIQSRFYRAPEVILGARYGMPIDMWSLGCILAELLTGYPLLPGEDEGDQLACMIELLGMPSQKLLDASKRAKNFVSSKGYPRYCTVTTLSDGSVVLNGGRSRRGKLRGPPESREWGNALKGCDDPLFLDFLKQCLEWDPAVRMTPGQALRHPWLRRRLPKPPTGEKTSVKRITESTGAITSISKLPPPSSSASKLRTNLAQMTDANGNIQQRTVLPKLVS
Sequence of UniProt Q9Y2H1 (whole entry, looked up): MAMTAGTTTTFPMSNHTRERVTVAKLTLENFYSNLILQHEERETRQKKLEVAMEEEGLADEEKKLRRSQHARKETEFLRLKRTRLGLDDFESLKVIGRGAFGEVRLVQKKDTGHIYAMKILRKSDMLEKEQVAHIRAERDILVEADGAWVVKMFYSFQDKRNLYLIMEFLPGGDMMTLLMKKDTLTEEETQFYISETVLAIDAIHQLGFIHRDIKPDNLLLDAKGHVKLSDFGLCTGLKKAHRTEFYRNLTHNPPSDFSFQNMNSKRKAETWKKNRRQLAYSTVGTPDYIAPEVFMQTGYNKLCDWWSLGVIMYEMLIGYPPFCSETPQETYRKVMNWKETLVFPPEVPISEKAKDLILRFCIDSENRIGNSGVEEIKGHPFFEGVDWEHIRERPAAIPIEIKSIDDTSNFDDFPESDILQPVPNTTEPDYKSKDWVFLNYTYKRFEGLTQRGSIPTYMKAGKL

Study 1
Target: Serine/threonine-protein kinase 16 (STK16, Homo sapiens, UniProt O75716)
Sequence of UniProt O75716 (whole entry, looked up): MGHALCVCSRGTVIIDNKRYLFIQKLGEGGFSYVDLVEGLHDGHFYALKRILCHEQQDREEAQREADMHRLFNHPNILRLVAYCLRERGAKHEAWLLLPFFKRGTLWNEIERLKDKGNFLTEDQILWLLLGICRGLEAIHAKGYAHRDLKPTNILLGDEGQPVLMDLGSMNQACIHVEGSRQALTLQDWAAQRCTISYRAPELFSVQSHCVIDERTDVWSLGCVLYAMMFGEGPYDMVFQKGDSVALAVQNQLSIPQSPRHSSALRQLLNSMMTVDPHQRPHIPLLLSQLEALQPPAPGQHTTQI
Effect on: enzyme activity
Action: inhibitor
Concentration: 0.5 µM
Baseline: control
Quantity: remaining activity
SMILES = O=C1NC(=O)C(c2cn(CCCO)c3ncccc23)=C1c1cnccn1; value = 90.3%
SMILES = Nc1[nH]nc2nc3ccccc3nc12; value = 91.9%
SMILES = NCCNc1ncc(C(N)=O)c(Nc2cccc(C(F)(F)F)c2)n1; value = 95.9%
SMILES = Cn1c2ccccc2c2c3c(c4c5ccccc5n(CCC#N)c4c21)CNC3=O; value = 81.1%
SMILES = CCOC(=O)c1c(C)[nH]c(/C=C2\C(=O)Nc3ccccc32)c1C; value = 88.3%
SMILES = Cc1nc(-c2ccccc2)c(-c2ccncc2)o1; value = 109%
SMILES = Cn1sc(=O)n(Cc2ccccc2)c1=O; value = 105%
SMILES = Oc1ccc(-c2nc(-c3ccncc3)c(-c3ccc(F)cc3)[nH]2)cc1; value = 111%
SMILES = COc1ccc(C(=O)Nc2sc3c(c2C(N)=O)CCCC3)cc1OC; value = 106%
SMILES = CC(C)[C@H](CO)Nc1nc(Nc2cc(N)cc(Cl)c2)c2ncn(C(C)C)c2n1; value = 74%
SMILES = O=c1c2ccccc2[nH]c(=S)n1CCN1CCC(=C(c2ccc(F)cc2)c2ccc(F)cc2)CC1; value = 104%
SMILES = CO[C@H]1C[C@@H]2CC[C@@H](C)[C@@](O)(O2)C(=O)C(=O)N2CCCC[C@H]2C(=O)O[C@H]([C@H](C)C[C@@H]2CC[C@@H](O)[C@H](OC)C2)CC(=O)[C@H](C)/C=C(\C)[C@@H](O)[C@@H](OC)C(=O)[C@H](C)C[C@H](C)/C=C/C=C/C=C/1C; value = 112%
SMILES = O=C(Nc1cccc(Nc2cc(Nc3cccc(C(F)(F)F)c3)ncn2)c1)C1CC1; value = 107%
SMILES = COc1cc2nccc(Oc3ccc(NC(=S)NC(=O)c4ccccc4C)cc3)c2cc1OC; value = 101%
SMILES = Cc1ccc(Nc2nccc(N(C)c3ccc4c(C)n(C)nc4c3)n2)cc1S(N)(=O)=O; value = 43.8%

Study 2
Organism: Sarcocystis neurona
Effect on: parasite growth
Concentration: 10 µM
Time: 96 h
Notes: first screen
Baseline: untreated
Quantity: log2 fold change
Compound = C/C(=C\C(=O)OCCCCCCCCC(=O)O)C[C@@H]1OC[C@H](C[C@@H]2O[C@H]2[C@@H](C)[C@H](C)O)[C@@H](O)[C@H]1O; value = -0.16
Compound = CC[C@]1(O)C[C@H]2CN(CCc3c([nH]c4ccccc34)[C@@](C(=O)OC)(c3cc4c(cc3OC)N(C=O)[C@H]3[C@@](O)(C(=O)OC)[C@H](OC(C)=O)[C@]5(CC)C=CCN6CC[C@]43[C@@H]65)C2)C1; value = -0.46
Compound = NS(=O)(=O)c1cc2c(cc1Cl)N=CNS2(=O)=O; value = -0.0357
Compound = NC(=O)c1cccnc1; value = -0.45
Compound = CC(=O)OCC(=O)[C@@]12OC3(CCCC3)O[C@@H]1C[C@H]1[C@@H]3CCC4=CC(=O)C=C[C@]4(C)[C@@]3(F)[C@@H](O)C[C@@]12C; value = -0.18
Compound = COc1cc(/C=C/c2ccc(O)cc2)cc(OC)c1; value = 0.0328
Compound = C#C[C@]1(O)CC[C@H]2[C@@H]3CCc4cc(OC)ccc4[C@H]3CC[C@@]21C; value = 0.0531
Compound = NC(=O)N1c2ccccc2CC(=O)c2ccccc21; value = -1.51
Compound = CN(C)CC[C@@H](c1ccc(Cl)cc1)c1ccccn1; value = 0.14
Compound = CCC(C)(C)C(=O)O[C@H]1C[C@@H](C)C=C2C=C[C@H](C)[C@H](CC[C@@H]3C[C@@H](O)CC(=O)O3)[C@H]21; value = 0.14
Compound = CC[N+](C)(C)c1cccc(O)c1; value = 0.26
Compound = O=C1CCc2ccc(OCCCCN3CCN(c4cccc(Cl)c4Cl)CC3)cc2N1; value = -0.4
Compound = CCOC(=O)N1CCC(=C2c3ccc(Cl)cc3CCc3cccnc32)CC1; value = -0.34
Compound = COc1cccc2c1C(=O)c1c(O)c3c(c(O)c1C2=O)C[C@@](O)(C(=O)CO)C[C@@H]3O[C@H]1C[C@H](N)[C@H](O)[C@H](C)O1; value = -1.58

Study 3
SMILES: O=C(Nc1cnn(-c2csc(C(=O)NC3COC3)c2)c1)Nc1ccccc1Cl
Concentration: 5 µM
Quantity: remaining activity
target = MAP kinase-interacting serine/threonine-protein kinase 2 (MKNK2, Homo sapiens, UniProt Q9HBH9); assay = enzyme activity; scale = baseline: untreated control; value = 96.8%
target = BDNF/NT-3 growth factors receptor (NTRK2, Homo sapiens, UniProt Q16620); assay = enzyme activity; scale = baseline: untreated control; value = 83.8%
target = Serine/threonine-protein kinase D2 (PRKD2, Homo sapiens, UniProt Q9BZL6); assay = enzyme activity; scale = baseline: untreated control; value = 94.9%
target = Cyclin-dependent kinase 1, with cyclin E (CDK1, Homo sapiens, UniProt P06493); assay = enzyme activity; scale = baseline: untreated control; value = 86.4%
target = Dual specificity tyrosine-phosphorylation-regulated kinase 2 (DYRK2, Homo sapiens, UniProt Q92630); assay = enzyme activity; scale = baseline: untreated control; value = 87.1%
target = Tyrosine-protein kinase BTK (BTK, Homo sapiens, UniProt Q06187); assay = enzyme activity; scale = baseline: untreated control; value = 91.6%
target = Beta-adrenergic receptor kinase 1 (GRK2, Homo sapiens, UniProt P25098); assay = enzyme activity; scale = baseline: untreated control; value = 96%
target = Serine/threonine-protein kinase 16 (STK16, Homo sapiens, UniProt O75716); assay = enzyme activity; scale = baseline: untreated control; value = 94.1%
target = Serine/threonine-protein kinase 38-like (STK38L, Homo sapiens, UniProt Q9Y2H1); assay = enzyme activity; scale = baseline: untreated control; value = 100%
target = Citron Rho-interacting kinase (CIT, Homo sapiens, UniProt O14578); assay = enzyme activity, inhibitor; value = 90.1%
target = Serine/threonine-protein kinase greatwall (MASTL, Homo sapiens, UniProt Q96GX5); assay = enzyme activity; scale = baseline: untreated control; value = 96.6%
target = cAMP-dependent protein kinase catalytic subunit PRKX (PRKX, Homo sapiens, UniProt P51817); assay = enzyme activity; scale = baseline: untreated control; value = 102%
target = Serine/threonine-protein kinase N3 (PKN3, Homo sapiens, UniProt Q6P5Z2); assay = enzyme activity, inhibitor; value = 91.6%
target = Serine/threonine-protein kinase TAO2 (TAOK2, Homo sapiens, UniProt Q9UL54); assay = kinase activity, kinase panel profiling; value = 101%

Study 4
SMILES: CN(C(=O)c1ccccc1)c1cc(N(C)c2ccc3c(c2)CCc2ccc(C(=O)NCCN4CCOCC4)cc2C3=O)ccc1F
Effect on: cell-free assay
Technique: competition with immobilised ligand
Concentration: 1 µM
Quantity: remaining binding
target = Leucine-rich repeat serine/threonine-protein kinase 2 (LRRK2, Homo sapiens, UniProt Q5S007, G2019S); value = 86%
target = Ankyrin repeat and protein kinase domain-containing protein 1 (ANKK1, Homo sapiens, UniProt Q8NFD2); value = 97%
target = Calcium/calmodulin-dependent protein kinase type 1B (PNCK, Homo sapiens, UniProt Q6P2M8); value = 86%
target = Tyrosine-protein kinase SYK (SYK, Homo sapiens, UniProt P43405); value = 89%
target = Cyclin-dependent kinase 9 (CDK9, Homo sapiens, UniProt P50750); value = 97%
target = cAMP-dependent protein kinase catalytic subunit beta (PRKACB, Homo sapiens, UniProt P22694); value = 92%
target = Receptor-type tyrosine-protein kinase FLT3 (FLT3, Homo sapiens, UniProt P36888, N841I); value = 80%
target = Serine/threonine-protein kinase LATS1 (LATS1, Homo sapiens, UniProt O95835); value = 99%
target = Ephrin type-A receptor 2 (EPHA2, Homo sapiens, UniProt P29317); value = 61%
target = Ribosomal protein S6 kinase alpha-5, C-terminal kinase domain (RPS6KA5, Homo sapiens, UniProt O75582); value = 100%
target = Serine/threonine-protein kinase PRP4 homolog (PRPF4B, Homo sapiens, UniProt Q13523); value = 70%

A few entries again (study 3):
target = Serine/threonine-protein kinase 16 (STK16, Homo sapiens, UniProt O75716); assay = enzyme activity; scale = baseline: untreated control; value = 94.1%
target = Serine/threonine-protein kinase 38-like (STK38L, Homo sapiens, UniProt Q9Y2H1); assay = enzyme activity; scale = baseline: untreated control; value = 100%
target = Citron Rho-interacting kinase (CIT, Homo sapiens, UniProt O14578); assay = enzyme activity, inhibitor; value = 90.1%
target = Serine/threonine-protein kinase greatwall (MASTL, Homo sapiens, UniProt Q96GX5); assay = enzyme activity; scale = baseline: untreated control; value = 96.6%
target = cAMP-dependent protein kinase catalytic subunit PRKX (PRKX, Homo sapiens, UniProt P51817); assay = enzyme activity; scale = baseline: untreated control; value = 102%
